{"data": "Published values pooled from the literature", "note": "Every numbered part comes from another study and shows a few of its results, in no order.", "chain of UniProt Q15418 (whole entry, looked up)": "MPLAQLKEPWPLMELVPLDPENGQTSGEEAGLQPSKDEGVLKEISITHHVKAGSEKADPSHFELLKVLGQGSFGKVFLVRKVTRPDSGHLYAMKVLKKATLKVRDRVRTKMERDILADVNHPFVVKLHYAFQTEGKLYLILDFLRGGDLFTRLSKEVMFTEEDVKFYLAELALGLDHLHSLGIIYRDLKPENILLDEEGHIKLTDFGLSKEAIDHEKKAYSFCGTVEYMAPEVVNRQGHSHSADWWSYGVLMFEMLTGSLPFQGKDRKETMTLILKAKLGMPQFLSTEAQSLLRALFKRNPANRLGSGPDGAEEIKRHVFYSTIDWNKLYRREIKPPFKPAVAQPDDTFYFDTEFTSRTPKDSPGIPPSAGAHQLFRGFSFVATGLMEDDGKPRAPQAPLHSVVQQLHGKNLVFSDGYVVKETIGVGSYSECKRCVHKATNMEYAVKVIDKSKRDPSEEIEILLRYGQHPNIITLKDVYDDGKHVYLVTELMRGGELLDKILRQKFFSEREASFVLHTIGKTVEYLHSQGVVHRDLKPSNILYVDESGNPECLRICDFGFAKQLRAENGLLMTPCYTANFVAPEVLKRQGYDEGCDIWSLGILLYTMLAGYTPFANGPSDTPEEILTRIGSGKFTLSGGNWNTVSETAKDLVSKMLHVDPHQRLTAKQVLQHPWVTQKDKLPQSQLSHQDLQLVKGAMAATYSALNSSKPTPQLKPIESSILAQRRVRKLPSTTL", "chain of UniProt O75747 (whole entry, looked up)": "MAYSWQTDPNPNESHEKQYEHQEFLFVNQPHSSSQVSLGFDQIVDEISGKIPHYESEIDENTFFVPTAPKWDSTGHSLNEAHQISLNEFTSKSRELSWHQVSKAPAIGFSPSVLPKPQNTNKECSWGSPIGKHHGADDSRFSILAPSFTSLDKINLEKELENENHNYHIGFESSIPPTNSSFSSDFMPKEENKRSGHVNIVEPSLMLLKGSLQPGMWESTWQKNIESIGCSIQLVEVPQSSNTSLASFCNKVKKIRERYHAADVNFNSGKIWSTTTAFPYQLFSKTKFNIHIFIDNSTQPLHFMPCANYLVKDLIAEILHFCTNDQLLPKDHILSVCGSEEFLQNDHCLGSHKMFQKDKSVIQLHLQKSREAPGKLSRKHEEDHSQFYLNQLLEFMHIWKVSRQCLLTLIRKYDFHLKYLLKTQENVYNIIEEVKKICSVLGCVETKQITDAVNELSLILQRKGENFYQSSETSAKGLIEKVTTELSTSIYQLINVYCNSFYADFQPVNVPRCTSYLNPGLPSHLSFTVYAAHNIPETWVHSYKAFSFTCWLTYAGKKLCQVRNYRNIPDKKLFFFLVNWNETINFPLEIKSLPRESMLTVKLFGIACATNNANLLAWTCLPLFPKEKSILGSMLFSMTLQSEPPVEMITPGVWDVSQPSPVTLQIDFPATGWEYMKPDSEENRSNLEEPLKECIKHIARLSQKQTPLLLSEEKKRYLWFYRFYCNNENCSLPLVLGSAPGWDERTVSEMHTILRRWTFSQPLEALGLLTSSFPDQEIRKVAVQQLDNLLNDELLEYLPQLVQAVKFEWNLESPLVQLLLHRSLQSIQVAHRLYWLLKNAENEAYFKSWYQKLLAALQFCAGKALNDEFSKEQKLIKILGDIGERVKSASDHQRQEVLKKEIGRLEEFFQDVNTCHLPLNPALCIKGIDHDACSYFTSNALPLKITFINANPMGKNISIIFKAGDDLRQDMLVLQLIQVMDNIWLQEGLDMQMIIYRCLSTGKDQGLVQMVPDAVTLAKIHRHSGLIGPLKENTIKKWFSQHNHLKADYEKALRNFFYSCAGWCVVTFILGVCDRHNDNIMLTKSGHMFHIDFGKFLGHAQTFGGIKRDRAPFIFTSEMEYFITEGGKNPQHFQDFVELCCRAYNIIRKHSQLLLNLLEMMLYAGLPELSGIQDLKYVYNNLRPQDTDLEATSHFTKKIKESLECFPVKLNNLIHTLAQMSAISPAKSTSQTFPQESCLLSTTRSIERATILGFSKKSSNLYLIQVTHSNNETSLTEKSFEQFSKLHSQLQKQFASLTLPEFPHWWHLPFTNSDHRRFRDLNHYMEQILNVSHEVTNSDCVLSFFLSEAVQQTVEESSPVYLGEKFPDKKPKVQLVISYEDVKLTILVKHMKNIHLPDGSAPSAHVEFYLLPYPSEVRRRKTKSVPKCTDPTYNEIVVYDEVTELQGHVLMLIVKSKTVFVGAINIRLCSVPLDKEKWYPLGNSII", "chain of UniProt P07949 (whole entry, unmodified, looked up)": "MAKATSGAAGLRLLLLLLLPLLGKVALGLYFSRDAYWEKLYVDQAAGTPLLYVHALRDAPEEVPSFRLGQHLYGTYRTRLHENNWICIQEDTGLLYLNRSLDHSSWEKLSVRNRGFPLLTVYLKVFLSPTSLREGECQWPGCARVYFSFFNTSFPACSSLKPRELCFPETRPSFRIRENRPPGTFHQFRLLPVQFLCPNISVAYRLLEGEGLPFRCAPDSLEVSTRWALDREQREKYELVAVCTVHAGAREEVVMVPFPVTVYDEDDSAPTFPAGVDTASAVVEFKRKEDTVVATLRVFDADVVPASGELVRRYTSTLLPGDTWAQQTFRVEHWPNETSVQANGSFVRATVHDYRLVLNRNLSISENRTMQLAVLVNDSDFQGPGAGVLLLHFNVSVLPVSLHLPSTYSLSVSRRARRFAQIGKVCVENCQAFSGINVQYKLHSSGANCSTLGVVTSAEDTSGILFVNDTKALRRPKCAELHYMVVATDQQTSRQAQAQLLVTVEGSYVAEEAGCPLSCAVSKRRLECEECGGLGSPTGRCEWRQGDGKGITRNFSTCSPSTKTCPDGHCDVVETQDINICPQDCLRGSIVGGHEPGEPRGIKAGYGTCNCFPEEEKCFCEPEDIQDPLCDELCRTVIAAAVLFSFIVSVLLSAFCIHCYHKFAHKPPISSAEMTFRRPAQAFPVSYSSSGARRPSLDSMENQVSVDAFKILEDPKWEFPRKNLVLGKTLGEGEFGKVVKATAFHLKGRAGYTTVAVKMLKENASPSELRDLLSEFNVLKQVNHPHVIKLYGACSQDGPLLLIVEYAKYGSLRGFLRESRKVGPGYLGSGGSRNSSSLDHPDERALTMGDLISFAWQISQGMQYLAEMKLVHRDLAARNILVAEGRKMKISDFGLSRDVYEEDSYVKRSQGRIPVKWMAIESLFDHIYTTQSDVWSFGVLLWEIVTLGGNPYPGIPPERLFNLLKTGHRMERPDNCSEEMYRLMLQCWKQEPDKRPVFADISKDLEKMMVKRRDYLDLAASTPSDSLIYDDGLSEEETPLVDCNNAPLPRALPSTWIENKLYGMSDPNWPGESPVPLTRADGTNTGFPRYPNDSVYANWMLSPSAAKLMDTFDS"}
{"data": "Set 1", "target": "Serine/threonine-protein kinase BRSK2 (BRSK2, Homo sapiens, UniProt Q8IWQ3)", "effect on": "enzyme activity", "action": "inhibitor", "concentration": "0.5 µM", "relative to": "control", "chain of UniProt Q8IWQ3 (whole entry, looked up)": "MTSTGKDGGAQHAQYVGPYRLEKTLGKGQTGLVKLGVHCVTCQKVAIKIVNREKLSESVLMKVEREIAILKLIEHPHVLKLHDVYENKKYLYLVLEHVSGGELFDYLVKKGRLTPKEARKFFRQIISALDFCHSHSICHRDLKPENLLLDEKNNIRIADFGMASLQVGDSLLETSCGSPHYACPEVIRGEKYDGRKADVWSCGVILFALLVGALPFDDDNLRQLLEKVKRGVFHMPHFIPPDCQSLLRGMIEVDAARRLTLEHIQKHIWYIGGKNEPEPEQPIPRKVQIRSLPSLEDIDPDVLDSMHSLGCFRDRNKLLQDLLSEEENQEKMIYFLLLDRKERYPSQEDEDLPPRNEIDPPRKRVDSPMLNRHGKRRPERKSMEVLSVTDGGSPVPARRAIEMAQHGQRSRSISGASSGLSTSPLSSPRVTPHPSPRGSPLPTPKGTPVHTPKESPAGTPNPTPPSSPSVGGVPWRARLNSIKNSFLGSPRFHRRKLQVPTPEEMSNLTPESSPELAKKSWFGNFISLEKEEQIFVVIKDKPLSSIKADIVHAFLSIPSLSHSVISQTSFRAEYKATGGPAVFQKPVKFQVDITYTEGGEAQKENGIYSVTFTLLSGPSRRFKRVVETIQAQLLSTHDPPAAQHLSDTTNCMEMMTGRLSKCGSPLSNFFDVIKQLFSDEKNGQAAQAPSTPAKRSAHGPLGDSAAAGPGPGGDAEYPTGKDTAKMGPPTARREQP"}
{"SMILES": "COc1cc(Nc2c(C#N)cnc3cc(OCCCN4CCN(C)CC4)c(OC)cc23)c(Cl)cc1Cl", "remaining activity [%]": 94.2}
{"SMILES": "CC(C)(C)n1nc(Cc2cccc3ccccc23)c2c(N)ncnc21", "remaining activity [%]": 92}
{"SMILES": "Nc1ncnc2c1cnn2-c1ccccc1", "remaining activity [%]": 95.3}
{"SMILES": "O=C1Cc2c([nH]c3ccc([N+](=O)[O-])cc23)-c2ccccc2N1", "remaining activity [%]": 34.5}
{"SMILES": "N#CC(=C(N)Sc1ccc(N)cc1)c1ccccc1C(F)(F)F", "remaining activity [%]": 102}
{"SMILES": "CSc1nc(-c2ccnc(N[C@@H](C)c3ccccc3)c2)c(-c2ccc(F)cc2)[nH]1 (racemic)", "remaining activity [%]": 94.8}
{"SMILES": "CCCC(=O)Oc1ccc2[nH]c(C(=O)c3cc4ccccc4[nH]3)cc2c1", "remaining activity [%]": 98.8}
{"SMILES": "CC[n+]1c(/C=C/N(C)c2ccccc2)n(-c2ccccc2)c2ccc(-c3nc4ccccc4s3)cc21", "remaining activity [%]": 95.7}
{"SMILES": "Nc1nccc(-c2c(-c3ccc(F)cc3)ncn2C2CCNCC2)n1", "remaining activity [%]": 96.6}
{"data": "Set 2", "SMILES": "Cc1c(NC(=O)c2cc(C(N)=O)nc3cc(F)ccc23)c(C(F)(F)F)nn1Cc1ccc(C#N)cc1", "technique": "competition with immobilised ligand", "concentration": "1 µM"}
{"target": "MAP3K2 (Homo sapiens, UniProt Q9Y2U5)", "assay": "cell-free assay", "remaining binding": "85%"}
{"target": "MINK1 (Homo sapiens, UniProt Q8N4C8)", "assay": "cell-free assay", "remaining binding": "89%"}
{"target": "MAP3K9 (Homo sapiens, UniProt P80192)", "assay": "cell-free assay", "remaining binding": "100%"}
{"target": "CDK16 (Homo sapiens, UniProt Q00536)", "assay": "cell-free assay", "remaining binding": "100%"}
{"target": "MTOR (Homo sapiens, UniProt P42345)", "assay": "cell-free assay", "remaining binding": "93%"}
{"target": "TIE1 (Homo sapiens, UniProt P35590)", "assay": "cell-free assay", "remaining binding": "81%"}
{"target": "Ribosomal protein S6 kinase alpha-1, N-terminal kinase domain (RPS6KA1, Homo sapiens, UniProt Q15418)", "assay": "cell-free assay", "remaining binding": "100%"}
{"target": "TSSK3 (Homo sapiens, UniProt Q96PN8)", "assay": "cell-free assay", "remaining binding": "82%"}
{"target": "Ribosomal protein S6 kinase alpha-5, N-terminal kinase domain (RPS6KA5, Homo sapiens, UniProt O75582)", "assay": "cell-free assay", "remaining binding": "97%"}
{"target": "TSSK1B (Homo sapiens, UniProt Q9BXA7)", "assay": "cell-free assay", "remaining binding": "95%"}
{"target": "MST1R (Homo sapiens, UniProt Q04912)", "assay": "cell-free assay", "remaining binding": "76%"}
{"target": "PIK3C2G (Homo sapiens, UniProt O75747)", "assay": "binding", "remaining binding": "61%"}
{"target": "Tyrosine-protein kinase ABL1, phosphorylated (ABL1, Homo sapiens, UniProt P00519, F317L)", "assay": "cell-free assay", "remaining binding": "81%"}
{"target": "Tyrosine-protein kinase ABL1, phosphorylated (ABL1, Homo sapiens, UniProt P00519, T315I)", "assay": "cell-free assay", "remaining binding": "92%"}
{"target": "COQ8B (Homo sapiens, UniProt Q96D53)", "assay": "cell-free assay", "remaining binding": "80%"}
{"target": "RET (Homo sapiens, UniProt P07949, V804L)", "assay": "cell-free assay", "remaining binding": "100%"}
{"target": "MAPK9 (Homo sapiens, UniProt P45984)", "assay": "cell-free assay", "remaining binding": "77%"}
{"target": "PRKD2 (Homo sapiens, UniProt Q9BZL6)", "assay": "cell-free assay", "remaining binding": "100%"}
{"data": "Set 3", "species": "mouse", "sample": "microsomes or S9", "concentration": "2 µM", "time": "0.5 h"}
{"Structure (SMILES)": "COc1ccc(C2OC(=O)CC2C(=O)N2CCN(c3cc(Cl)ccc3C)CC2)cc1OC (centres unmarked)", "remaining compound [%]": 43.4}
{"Structure (SMILES)": "COc1cc(NC(=O)c2cnn(-c3ccc(C)cc3C)c2C2CCNCC2)cc(OC)c1OC", "remaining compound [%]": "> 100"}
{"Structure (SMILES)": "CCN(CC)S(=O)(=O)c1ccc(C(=O)Nc2sc3c(c2C(N)=O)CC(C)(C)NC3(C)C)cc1", "remaining compound [%]": 23.7}
{"Structure (SMILES)": "Cc1nc(-c2cc(C(=O)OCc3cc(F)cc4c3OCOC4)n(C)c2)cs1", "remaining compound [%]": 0.901}
{"Structure (SMILES)": "Cc1nn(CC(=O)O)c2nccc(-c3cnn(C)c3)c12", "remaining compound [%]": 73.4}
{"Structure (SMILES)": "Cc1ccccc1-c1nc2ccccc2cc1Cn1c2ccc(C(N)=O)cc2c2cnc(N)nc21", "remaining compound [%]": 39.9}
{"Structure (SMILES)": "COc1nccc(CNc2nn(C)cc2Cl)c1F", "remaining compound [%]": "> 100"}
{"Structure (SMILES)": "CCOC(=O)c1ncn2c(N)c(C(N)=O)nnc12", "remaining compound [%]": 76.3}
{"Structure (SMILES)": "Fc1ccc2nc(-n3cncn3)c(-c3ccc(Cl)cc3Br)c(Cl)c2c1", "remaining compound [%]": 102}
{"Structure (SMILES)": "CC(C)Oc1ccc(C(=O)O)cc1NC(=O)c1cccn1C", "remaining compound [%]": 63.9}
{"Structure (SMILES)": "Cc1cc(N2CCCC2c2cc(C)on2)nc(N)n1 (centres unmarked)", "remaining compound [%]": 53.1}
{"Structure (SMILES)": "Cc1nn(CC(=O)NCCN2CCCCC2C)c(C)c1C (centres unmarked)", "remaining compound [%]": 0.154}
{"data": "Set 4", "SMILES": "C=CCc1ccc(O)c(-c2cc(CC=C)ccc2O)c1", "effect on": "chloride current", "technique": "whole-cell voltage clamp", "ANO1 del476-501/F627A": "Anoctamin-1 (ANO1, Homo sapiens, UniProt Q5XXA6, del476-501/F627A)", "chain of UniProt Q5XXA6 (whole entry, unmodified, looked up)": "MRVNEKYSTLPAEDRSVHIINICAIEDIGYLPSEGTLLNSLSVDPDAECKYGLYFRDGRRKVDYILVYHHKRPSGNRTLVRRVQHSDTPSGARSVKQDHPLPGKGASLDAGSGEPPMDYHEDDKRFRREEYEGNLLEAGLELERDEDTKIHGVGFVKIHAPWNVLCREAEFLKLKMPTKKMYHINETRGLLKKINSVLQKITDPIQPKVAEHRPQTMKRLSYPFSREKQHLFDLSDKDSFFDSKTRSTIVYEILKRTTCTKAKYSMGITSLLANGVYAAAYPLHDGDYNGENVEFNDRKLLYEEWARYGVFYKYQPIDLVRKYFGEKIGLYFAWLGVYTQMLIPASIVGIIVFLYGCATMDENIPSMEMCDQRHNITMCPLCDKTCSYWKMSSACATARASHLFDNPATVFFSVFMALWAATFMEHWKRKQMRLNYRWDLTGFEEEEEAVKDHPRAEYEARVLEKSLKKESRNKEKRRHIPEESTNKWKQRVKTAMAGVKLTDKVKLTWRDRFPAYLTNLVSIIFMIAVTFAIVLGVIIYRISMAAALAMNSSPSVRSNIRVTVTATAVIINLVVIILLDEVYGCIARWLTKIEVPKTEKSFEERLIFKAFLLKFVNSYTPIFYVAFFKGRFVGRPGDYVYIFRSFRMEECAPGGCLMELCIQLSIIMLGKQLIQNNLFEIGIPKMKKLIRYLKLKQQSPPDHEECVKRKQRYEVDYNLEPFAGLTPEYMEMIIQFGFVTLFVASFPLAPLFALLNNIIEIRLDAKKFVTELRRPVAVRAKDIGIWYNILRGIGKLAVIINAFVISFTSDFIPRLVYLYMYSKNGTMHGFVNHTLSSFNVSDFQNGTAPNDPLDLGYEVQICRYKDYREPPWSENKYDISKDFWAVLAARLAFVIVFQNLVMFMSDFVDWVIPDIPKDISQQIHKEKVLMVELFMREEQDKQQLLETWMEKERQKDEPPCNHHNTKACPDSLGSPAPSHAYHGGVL"}
{"target": "ANO1 del476-501/F627A", "setting": "membrane voltage 100 mV", "IC50 [µM]": 27.7}
{"target": "Anoctamin-1 (ANO1, Homo sapiens, UniProt Q5XXA6, del476-501/R561A)", "setting": "membrane voltage -80 mV", "IC50 [µM]": 36.9}
{"target": "Anoctamin-1 (ANO1, Homo sapiens, UniProt Q5XXA6, del476-501/M544A)", "setting": "membrane voltage -20 mV", "IC50 [µM]": 80.4}
{"target": "Anoctamin-1 (ANO1, Homo sapiens, UniProt Q5XXA6, del476-501/F646A)", "setting": "membrane voltage 100 mV", "IC50 [µM]": 29.2}
{"target": "ANO1 del476-501/F627A", "setting": "membrane voltage -80 mV", "IC50 [µM]": 34.9}
